Assay results of several laboratories.
Each line is one published result; not all experiments were run side by side. “And” joins repeats or separate records; there may be more than shown. ± marks the error that the study gave. In brackets after ≈: the same amount, converted by molar mass.

SMILES | organism | assay | test system | setting | how to read | endpoint | result
C[N+]1=C2C(c3ccccc3)=[N+]([O-])c3ccccc3N2CCC1 | Parabacteroides distasonis and Bacteroides spp. | bacterial growth | – | – | – | MIC50 | 2 µg/mL
CC[C@H](C)[C@H](NC(=O)[C@H](C)NC(=O)CNC(=O)[C@H](C)NC(=O)[C@H](CCCCN)NC(=O)[C@H](CO)NC(=O)[C@H](C)NC(=O)[C@H](CCSC)NC(=O)CN)C(=O)N[C@@H](C)C(=O)NCC(=O)N[C@@H](CCCCN)C(=O)N[C@H](C(=O)N[C@@H](C)C(=O)N[C@@H](CCCCN)C(=O)N[C@H](C(=O)N[C@@H](C)C(=O)N[C@@H](CC(C)C)C(=O)N[C@@H](CCCCN)C(=O)N[C@@H](C)C(=O)N[C@@H](CC(C)C)C(N)=O)C(C)C)[C@@H](C)CC | Escherichia coli | – | 3538 ampicillin resistant | Loewe additivity, together with: ampicillin | – | combination index | 0.84
C[N+]1=C2C(c3ccc([N+](=O)[O-])cc3)=[N+]([O-])c3ccccc3N2CCC1 | Prevotella spp. | bacterial growth | – | – | – | MIC90 | 1 µg/mL
CCOC(=O)C1(Cc2cccc(C)c2)Oc2cc(F)ccc2N(Cc2cccc(C)c2)C1=O (stereo not shown) | Echinochloa crus-galli | fresh weight, greenhouse postemergence | – | postemergence, 150 g ai/ha, 21 days | – | inhibition | 54.9 ± 2.02%
NCCO.O=C(O)C(Cl)Cl | Eleusine indica | – | – | 15 mg/mL, 21 days, pre-emergence, greenhouse | – | herbicidal inhibition | 0%
CCOC(=O)C1(Cc2ccc(C)cc2)Oc2cc(F)ccc2N(Cc2ccc(C)cc2)C1=O (stereo not shown) | Echinochloa crus-galli | fresh weight, greenhouse postemergence | – | postemergence, 150 g ai/ha, 21 days | – | inhibition | 35.7 ± 1.96%
[O-][N+]1=C(c2ccc(Cl)cc2)C2=NCCCN2c2ccccc21 | Parabacteroides distasonis and Bacteroides spp. | bacterial growth | – | – | – | MIC90 | 1 µg/mL (≈ 3.21 µM)
O=c1n(CCNCCOS(=O)(=O)c2ccccc2)c(=O)n(S(=O)(=O)c2ccccc2)c(=O)n1S(=O)(=O)c1ccccc1 | Bacillus cereus | broth microdilution | – | – | – | MLC | 4 ± 1 µg/mL
O=C(NNc1ccc(Cl)cc1)c1nnc(CC23CC4CC(CC(C4)C2)C3)o1 | Fusarium oxysporum | microbial growth | – | 50 µg/mL | – | inhibition | 100%
COc1cc(C(SC(C)C)SC(C)C)ccc1OCCNS(=O)(=O)c1ccc(Cl)cc1 | tobacco mosaic virus | inactivation activity | in vivo plant | – | – | EC50 | 57.7 ± 1.4 µg/mL (≈ 114 µM)
C#CCN1C(=O)C(CC#C)(C(=O)OCC)Oc2ccccc21 (stereo not shown) | Eclipta prostrata | – | greenhouse | postemergence, 150 g ai/ha, 21 days | – | fresh weight inhibition | > 75%
COc1cc(C(SC(C)C)SC(C)C)ccc1OCCNS(=O)(=O)c1ccc(Br)cc1 | tobacco mosaic virus | curative activity | in vivo plant | – | – | EC50 | 183 ± 3.2 µg/mL (≈ 334 µM)
CC(C)C[C@H](NC(=O)[C@H](Cc1ccccc1)NC(=O)[C@H](CCC(N)=O)NC(=O)[C@H](Cc1ccc(O)cc1)NC(=O)[C@H](CCCCN)NC(=O)[C@@H]1CCCN1C(=O)[C@H](CCCNC(=N)N)NC(=O)[C@H](CCC(N)=O)NC(=O)[C@H](Cc1c[nH]c2ccccc12)NC(=O)[C@H](CS)NC(=O)[C@H](Cc1c[nH]c2ccccc12)NC(=O)[C@H](Cc1ccccc1)NC(=O)[C@H](CCCNC(=N)N)NC(=O)[C@H](CCCCN)NC(=O)[C@H](CCCCN)NC(=O)[C@H](CCCCN)NC(=O)[C@@H](NC(=O)[C@@H](NC(=O)[C@H](CC(C)C)NC(=O)[C@@H](N)CO)C(C)C)[C@@H](C)O)C(=O)O | Staphylococcus haemolyticus | – | – | – | – | MBC/MIC ratio | 0.64
CCSC(SCC)c1ccc(OCCNS(=O)(=O)c2ccc(C)cc2)c(Cl)c1 | tobacco mosaic virus | curative activity | in vivo plant | – | – | EC50 | > 2500 µg/mL
CCCCCCCCCCCCCC(=O)N[C@H]1C(=O)N[C@@H](CN)C(=O)N[C@@H](CO)C(=O)N[C@@H](Cc2ccc(O)cc2)C(=O)O[C@H]1C | Staphylococcus aureus | – | SH1000 | together with: N-acetylsphingosine, molar ratio 0.5 | – | MIC | 2 µg/mL
CCCSC(SCCC)c1ccc(OCCNS(=O)(=O)c2ccc(C)cc2)c(OC)c1 | Tobacco mosaic virus | protective activity | plant in vivo | – | – | EC50 | 654.5 ± 3.2 µg/mL (≈ 1350 µM)
CCCN1C(=O)C(CCC)(C(=O)OCC)Oc2cc(F)ccc21 (stereo not shown) | Eclipta prostrata | fresh weight, greenhouse postemergence | – | postemergence, 150 g ai/ha, 21 days | – | inhibition | 51 ± 3.53%
CC[C@H](C)[C@H](NC(=O)[C@H](CCCNC(=N)N)NC(=O)[C@H](CO)NC(=O)[C@H](Cc1ccc(O)cc1)NC(=O)[C@@H](NC(=O)[C@@H](NC(=O)[C@H](C)NC(=O)CNC(=O)[C@H](CCCCN)NC(=O)[C@H](CCCCN)NC(=O)CCNC(=O)CCCCCNC(=O)[C@H](CCCNC(=N)N)NC(=O)CCCCCNC(=O)[C@H](CCCNC(=N)N)NC(=O)[C@H](CCCNC(=N)N)NC(=O)CCCCCNC(=O)[C@H](CCCNC(=N)N)NC(=O)[C@H](CCCNC(=N)N)NC(=O)CCCCCNC(=O)[C@H](CCCNC(=N)N)NC(=O)[C@H](CCCNC(=N)N)NC(=O)CCCCCNC(=O)[C@@H](N)CCCNC(=N)N)C(C)C)[C@@H](C)O)C(=O)N[C@@H](CO)C(=O)NCC(=O)N[C@@H](CCC(N)=O)C(=O)N[C@@H](Cc1ccc(O)cc1)C(=O)N[C@@H](CCCCN)C(=O)O | Escherichia coli | crystal violet | ATCC 25922 | – | – | minimum biofilm inhibitory concentration | 6 µM
COc1cc(C(SC(C)C)SC(C)C)ccc1OCCNS(=O)(=O)c1ccc(F)cc1 | Tobacco mosaic virus | inactivation activity | plant in vivo | – | – | EC50 | 42.4 ± 0.76 µg/mL (≈ 86.9 µM)
CN(C(=O)c1ccn2ncc(-c3ccc(C(N)=O)cc3)c2c1)c1ccc(C#N)cn1 | Cryptosporidium parvum | – | UGA1 Nluc, IFN-gamma knockout C57BL/6 mice, faeces | oral, 10 mg/kg daily, 120 h post infection, treatment days 3-9 | higher means more parasites | faecal Nluc luminescence | 49 a.u. and 124 a.u. and 72 a.u. and 81 a.u. and 426 a.u.
Cc1ccc(N2CC3CC(C2)N3C)cc1C(=O)NC1(c2ccc3c4c(cccc24)C(=O)N3C)CC1 | Human coronavirus NL63 | viral replication | – | 0.1 µM | – | inhibition | 54.8%
Cc1ccc(S(=O)(=O)NCCOc2ccc(C(SC(C)C)SC(C)C)cc2Cl)cc1 | Tobacco mosaic virus | protective activity | plant in vivo | – | – | EC50 | 320 ± 3.2 µg/mL (≈ 656 µM)
Cc1cc(C(=O)Nc2nc3cccc(C)c3n2[C@H]2CCCCN(C(=O)/C=C/CN(C)C)C2)ccn1 | Trypanosoma brucei | cell growth, Alamar Blue | 2T1 overexpressing Tb927.7.7360 | – | baseline: parental 2T1 | EC50 fold shift | 0.76 fold and 1.25 fold
CCOC(=O)C1(Cc2cccc(C(C)C)c2)Oc2cc(F)ccc2N(Cc2cccc(C(C)C)c2)C1=O (stereo not shown) | Echinochloa crus-galli | fresh weight, greenhouse postemergence | – | postemergence, 150 g ai/ha, 21 days | – | inhibition | 39.7 ± 1.96%
CCCSC(SCCC)c1ccc(OCCNS(=O)(=O)c2cccc(Br)c2)c(OC)c1 | Tobacco mosaic virus | protective activity | plant in vivo | – | – | EC50 | 305.8 ± 2 µg/mL (≈ 557 µM)
[O-][N+]1=C(c2ccsc2)C2=NCCCN2c2ccccc21 | Parabacteroides distasonis and Bacteroides spp. | bacterial growth | – | – | – | MIC50 | 0.25 µg/mL (≈ 0.882 µM)
COc1cc(C(SC(C)C)SC(C)C)ccc1OCCNS(=O)(=O)c1ccc(C)cc1 | Tobacco mosaic virus | inactivation activity | plant in vivo | – | – | EC50 | 210.5 ± 1.4 µg/mL (≈ 435 µM)
C[C@H](NC(=O)Cc1cc(F)cc(F)c1)C(=O)N[C@@H]1C(=O)N(C)c2ccccc2-c2ccccc21 | dengue virus type 2 | viral protein expression, immunoblot, measured: NS4B and NS1 | Huh-7.5.1 | 48 h | – | lowest effective concentration | 30 nM
